Results gathered from unrelated publications.
Protocols differ between the studies behind these lines. Numbers after ± are the reported error.

CS(=O)(=O)Nc1ccc(C(=O)O[C@@H](Cc2c(Cl)c[n+]([O-])cc2Cl)c2ccc(OC(F)F)c(OCC3CC3)c2)cc1OCC1CC1  Cmax (human, plasma; inhaled, 1200 µg twice daily, day 1, multi-dose dry powder inhaler): 0.547 ng/mL
CC1=C2C[C@H]3[C@@H](CC[C@@H]4C[C@H](NS(C)(=O)=O)CC[C@@]43C)[C@@H]2CC[C@@]2(C1)O[C@@H]1C[C@H](C)CN[C@H]1[C@H]2C  Cmax (patients, plasma; oral, 40 mg daily, day 22, cycle 1): 39.7 ng/mL
Clc1ccc2cc(-c3ccccc3)[nH]c2c1  viability (HEK293; cell growth or viability; 50 µM): 89.4%
CC(C)[C@H](N)C(=O)NCCCS(=O)(=O)O  Cmax (human, plasma; oral, 340 mg capsule, day 14, fed, multiple dosing): 8830 ± 2660 ng/mL
CCCC[C@H](NC(C)=O)C(=O)N[C@H]1CCC(=O)NC[C@@H](C(=O)N[C@@H](Cc2c[nH]c3ccccc23)C(N)=O)NC(=O)[C@H](CCCNC(=N)N)NC(=O)[C@@H](Cc2ccccc2)NC(=O)[C@H](Cc2c[nH]cn2)NC1=O  Cmax (CD Sprague-Dawley rat, female, plasma; subcutaneous, 1.0 mg/kg/day, day 1): 516 ng/mL
C(=NOCc1ccccc1)c1c(-c2ccccc2)[nH]c2ccccc12  viability (HEK293; cell growth or viability; 50 µM): 66.1%
CO[C@H]1C[C@@H]2CC[C@@H](C)[C@@](O)(O2)C(=O)C(=O)N2CCCC[C@H]2C(=O)O[C@H]([C@H](C)C[C@@H]2CC[C@@H](O)[C@H](OC)C2)CC(=O)[C@H](C)/C=C(\C)[C@@H](O)[C@@H](OC)C(=O)[C@H](C)C[C@H](C)/C=C/C=C/C=C/1C  Cmax (human, whole blood; oral, 20 mg, compound alone): 19.3 ng/mL
Cc1nc2cccc(OCC(C)(C)C(=O)NC(C)C)c2c(N)c1C(=O)O  Cmax (male Sprague-Dawley rat, plasma; oral, 100 mg/kg, single dose): 147 ng/mL
CC(C)[C@H](NC(=O)[C@@H]1CCCN1C(=O)[C@H](CCCNC(=N)N)NC(=O)[C@H](CS)NC(=O)[C@H](Cc1c[nH]c2ccccc12)NC(=O)[C@H](CCCNC(=N)N)NC(=O)[C@@H](Cc1ccccc1)NC(=O)[C@H](Cc1c[nH]cn1)NC(=O)[C@H](CCC(=O)O)NC(=O)[C@H](CS)NC(=O)[C@H](CS)NC(=O)[C@H](CCCCN)NC(=O)[C@@H]1CC(=O)N[C@@H](CCCNC(=N)N)C(=O)N[C@@H](C)C(=O)N[C@@H](CC(=O)O)C(=O)N[C@H](Cc2ccc(O)cc2)C(=O)N1)C(N)=O [technetium-99m labelled]  tissue uptake (C57 mice, tumor; intravenous, 0.037 MBq, 0.5 h): 16.6 ± 1.91 %ID/g
CCc1c(-c2ccccc2)c(-c2ccccc2)nn1-c1ccccc1-c1cccc(OCC(=O)O)c1  Cmax (rat, plasma; oral, 10 mg/kg): 1260 ng/mL
CNCc1ccc(-c2[nH]c3cc(F)cc4c3c2CCNC4=O)cc1  Cmax (human, fasted, plasma; oral, 600 mg, single dose, median): 585 ng/mL
Cc1cc(Nc2cc3ncccc3c(N[C@@H]3C[C@H]4CC[C@@H](C3)N4CCC#N)n2)n[nH]1  Cmax (Sprague-Dawley rat, female, plasma; oral, 1000 mg/kg/day, last day of 4 weeks): 91.8 ng/mL
C#C[C@]1(COP(=O)(O)OP(=O)(O)OP(=O)(O)O)O[C@@H](n2cnc3c(N)nc(F)nc32)C[C@@H]1O  Tmax (human PBMC tumour model; host not given, plasma; oral, 30 mg, single dose, fed): 18 h
CC(C)NC[C@@H](C(=O)N1CCN(c2ncnc3c2[C@H](C)C[C@H]3O)CC1)c1ccc(Cl)cc1  Cmax (human, Healthy hepatic function, plasma; oral, 100 mg single dose, NCI classification, geometric mean): 50.9 ng/mL

Repeated from above:
CCc1c(-c2ccccc2)c(-c2ccccc2)nn1-c1ccccc1-c1cccc(OCC(=O)O)c1  Cmax (rat, plasma; oral, 10 mg/kg): 1260 ng/mL
